Measurements collected from several papers.
Compare with care: the assays were run in different laboratories.
Target: Muscarinic acetylcholine receptor M3 (CHRM3, Homo sapiens, UniProt P20309)
Sequence of UniProt P20309 (whole entry, looked up): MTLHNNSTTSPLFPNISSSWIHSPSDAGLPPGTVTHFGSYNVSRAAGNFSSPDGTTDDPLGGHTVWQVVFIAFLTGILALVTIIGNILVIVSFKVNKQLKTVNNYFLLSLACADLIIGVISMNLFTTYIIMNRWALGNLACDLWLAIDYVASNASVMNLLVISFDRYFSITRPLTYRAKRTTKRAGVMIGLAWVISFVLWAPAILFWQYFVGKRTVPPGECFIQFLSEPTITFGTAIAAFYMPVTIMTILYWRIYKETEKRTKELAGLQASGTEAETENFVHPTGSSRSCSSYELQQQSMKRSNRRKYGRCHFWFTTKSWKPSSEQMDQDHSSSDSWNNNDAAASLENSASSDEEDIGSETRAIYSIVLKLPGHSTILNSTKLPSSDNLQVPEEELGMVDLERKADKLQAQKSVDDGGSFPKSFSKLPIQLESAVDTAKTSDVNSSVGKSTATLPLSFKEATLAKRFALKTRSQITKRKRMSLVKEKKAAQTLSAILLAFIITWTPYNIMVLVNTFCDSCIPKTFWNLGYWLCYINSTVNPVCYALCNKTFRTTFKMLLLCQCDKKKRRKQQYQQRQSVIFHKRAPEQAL

Structure (SMILES) | test | setting | scale | measurement | result
CCO[C@H]1[C@H](O)[C@@H](N)[C@@H](O[C@H]2[C@H](O[C@@H]3O[C@H](CO)[C@@H](O[C@H]4O[C@@H](CN)[C@@H](O)[C@H](O)[C@H]4N)[C@H]3O)[C@@H](O)[C@H](N)C[C@@H]2N)O[C@@H]1CO | radioligand binding | 10 µM, 1% DMSO | – | specific binding | 12%
Cc1cc(-c2ccc3ccccc3c2)nnc1NCCN1CCN(C)CC1 | antagonist | 10000 nM | reference: control | activity | 0%
CCc1nnc(-c2c(OC)cc(-c3cnc4cc(-c5cnn(C)c5)ccn34)cc2OC)o1 | antagonist radioligand, radioligand binding | 10 µM, SafetyScreen44 M3 | – | inhibition | 3%
Cc1cc(Nc2nc(C[C@@]3(C(=O)O)CCN(Cc4cccc(Cl)c4F)[C@H](C)C3)cc(C)c2F)[nH]n1 | agonist | 10 µM | – | activation | -1.04%
C/C(=N\OCCCN1CCCCC1)c1ccc(C(F)(F)F)cc1 | antagonist, IP-One | 10 µM | – | inhibition | 34.4%
N[C@H](C(=O)N1CCCC1)C1CCN(c2nccc3c(-c4ncc(Cl)cc4Cl)cccc23)CC1 | functional response, antagonist | 10 µM | – | inhibition | 37%
CN[C@@H]1[C@H](O)[C@H](NC)[C@H]2O[C@]3(O)[C@H](O[C@@H]2[C@H]1O)O[C@H](C)C[C@H]3NC(=O)Cc1ccc(Cl)cn1 | ligand displacement, radioligand | 10 µM | – | inhibition | -1%
Cc1sc2c(c1C)C(c1ccc(Cl)cc1)=NC(CC(=O)OC(C)(C)C)c1nnc(C)n1-2 (centres unmarked) | ligand displacement, radioligand | 1 µM | – | remaining binding | 104%

Repeated from above:
Structure (SMILES) | test | setting | scale | measurement | result
Cc1cc(-c2ccc3ccccc3c2)nnc1NCCN1CCN(C)CC1 | antagonist | 10000 nM | reference: control | activity | 0%
